Experimental data pooled from the literature.
Lines come from different studies, so protocols differ. ± gives the spread as reported.
Technique: steady-state kinetics
B1: enzyme (Aquifex aeolicus, UniProt O67572); chain MLRSSLLPFSYLYEKIINFRNTLYDKGFLKIKKLPVPVISVGNLSVGGSGKTSFVMYLADLLKDKRVCILSRGYKRKSKGTLIVSEYGNLKVSWEEAGDEPYLMAKLLPHVSVVASEDRYKGGLLALEKLSPEVFILDDGFQHRKLHRDLNILLLKKKDLKDRLLPAGNLREPLKEIRRADALVLTYQEVEPFEFFTGKPTFKMFREFCCLLNSDFEEVPFDILKEREVIAFSGLGDNGQFRKVLKNLGIKVKEFMSFPDHYDYSDFTPEEGEIYLTTPKDLIKLQGYENVFALNFKVKLEREEKLKKLIYRIFY
Chain of UniProt F8G0P2 (whole entry, unmodified, looked up): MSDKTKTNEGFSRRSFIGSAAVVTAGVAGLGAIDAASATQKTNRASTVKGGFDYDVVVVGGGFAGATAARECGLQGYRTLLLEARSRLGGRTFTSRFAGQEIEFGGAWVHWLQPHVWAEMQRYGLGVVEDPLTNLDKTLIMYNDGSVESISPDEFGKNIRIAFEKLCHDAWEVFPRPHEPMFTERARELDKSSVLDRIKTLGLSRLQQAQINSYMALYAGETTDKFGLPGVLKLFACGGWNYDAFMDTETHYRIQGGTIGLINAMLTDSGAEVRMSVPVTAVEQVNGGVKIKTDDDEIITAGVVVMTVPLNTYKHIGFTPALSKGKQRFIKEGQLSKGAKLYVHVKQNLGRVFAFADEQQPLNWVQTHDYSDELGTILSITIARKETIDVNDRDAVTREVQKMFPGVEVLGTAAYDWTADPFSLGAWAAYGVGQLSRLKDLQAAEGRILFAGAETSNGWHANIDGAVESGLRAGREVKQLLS

Molecule = dmhA Y300F (Campylobacter jejuni); substrate = Nc1nc2c(ncn2[C@@H]2O[C@H](COP(=O)(O)OP(=O)(O)O[C@H]3O[C@H]([C@H](O)CO)[C@@H](O)[C@H](O)[C@@H]3O)[C@@H](O)[C@H]2O)c(=O)[nH]1; setting = pH 7.5, 30 °C; kcat = 0.082 ± 0.002 s⁻¹
Molecule = nicA2 T250V/T381V (Pseudomonas putida); substrate = CN1CCC[C@H]1c1cccnc1; setting = pH 7.4, 22 °C; kcat = 0.0259 ± 0.0077 s⁻¹
Molecule = hdhb E18D/G39D/R40L/R41N/T17A (Clostridium sardiniense); substrate = NC(=O)c1ccc[n+]([C@@H]2O[C@H](COP(=O)(O)OP(=O)(O)OC[C@H]3O[C@@H](n4cnc5c(N)ncnc54)[C@H](O)[C@@H]3O)[C@@H](O)[C@H]2O)c1; setting = pH 8, 25 °C, cofactor varied; kcat = 0.08 ± 0.01 s⁻¹
Molecule = nicA2 (Pseudomonas putida, UniProt F8G0P2); substrate = CN1CCC[C@H]1c1cccnc1; setting = pH 7.4, 22 °C; kcat = 0.00611 ± 0.0022 s⁻¹
Molecule = hdhb G39D/R40L/R41N/T17A (Clostridium sardiniense); substrate = NC(=O)c1ccc[n+]([C@@H]2O[C@H](COP(=O)(O)OP(=O)(O)OC[C@H]3O[C@@H](n4cnc5c(N)ncnc54)[C@H](O)[C@@H]3O)[C@@H](O)[C@H]2O)c1; setting = pH 8, 25 °C, cofactor varied; kcat = 0.75 ± 0.03 s⁻¹
Molecule = Cj1438c (Campylobacter jejuni, UniProt Q0P8H6); substrate = Nc1ncnc2c1ncn2[C@@H]1O[C@H](COP(=O)(O)OP(=O)(O)OP(=O)(O)O)[C@@H](O)[C@H]1O; setting = pH 8, 25 °C, apparent; kcat = 2.9 ± 0.1 s⁻¹
Molecule = B1 (enzyme); substrate = CCCCCCCCCCC[C@@H](O)CC(=O)N[C@H]1[C@H](OC[C@H]2O[C@H](OP(=O)(O)O)[C@H](NC(=O)C[C@H](O)CCCCCCCCCCC)[C@@H](OC(=O)C[C@H](O)CCCCCCCCCCC)[C@@H]2O)O[C@H](CO)[C@@H](O)[C@@H]1OC(=O)C[C@H](O)CCCCCCCCCCC; setting = pH 8.5, 30 °C, apparent; kcat = 9.2 ± 0.1 s⁻¹
Molecule = dmhA S133T (Campylobacter jejuni); substrate = Nc1nc2c(ncn2[C@@H]2O[C@H](COP(=O)(O)OP(=O)(O)O[C@H]3O[C@H]([C@H](O)CO)[C@@H](O)[C@H](O)[C@@H]3O)[C@@H](O)[C@H]2O)c(=O)[nH]1; setting = pH 7.5, 30 °C; kcat = 0.37 ± 0.01 s⁻¹

Excerpt of the above:
Molecule = dmhA S133T (Campylobacter jejuni); substrate = Nc1nc2c(ncn2[C@@H]2O[C@H](COP(=O)(O)OP(=O)(O)O[C@H]3O[C@H]([C@H](O)CO)[C@@H](O)[C@H](O)[C@@H]3O)[C@@H](O)[C@H]2O)c(=O)[nH]1; setting = pH 7.5, 30 °C; kcat = 0.37 ± 0.01 s⁻¹
